Published values gathered from unrelated publications.
Several values in a cell are separate wells, animals, samples, runs or records. ± gives the spread as reported.
ESR1: Estrogen receptor (ESR1, Homo sapiens, UniProt P03372)
Moesin with CD44: Moesin, with CD44 (Homo sapiens, UniProt P26038)
IDO1: Indoleamine 2,3-dioxygenase 1 (IDO1, Homo sapiens, UniProt P14902)
LATS2: Serine/threonine-protein kinase LATS2 (LATS2, Homo sapiens, UniProt Q9NRM7)

Amino acid sequences for entries named in this document (tags omitted). A change or cut given only in a name is not applied to a line headed by its entry. Residues count along the entry.
UniProt P03372, whole entry: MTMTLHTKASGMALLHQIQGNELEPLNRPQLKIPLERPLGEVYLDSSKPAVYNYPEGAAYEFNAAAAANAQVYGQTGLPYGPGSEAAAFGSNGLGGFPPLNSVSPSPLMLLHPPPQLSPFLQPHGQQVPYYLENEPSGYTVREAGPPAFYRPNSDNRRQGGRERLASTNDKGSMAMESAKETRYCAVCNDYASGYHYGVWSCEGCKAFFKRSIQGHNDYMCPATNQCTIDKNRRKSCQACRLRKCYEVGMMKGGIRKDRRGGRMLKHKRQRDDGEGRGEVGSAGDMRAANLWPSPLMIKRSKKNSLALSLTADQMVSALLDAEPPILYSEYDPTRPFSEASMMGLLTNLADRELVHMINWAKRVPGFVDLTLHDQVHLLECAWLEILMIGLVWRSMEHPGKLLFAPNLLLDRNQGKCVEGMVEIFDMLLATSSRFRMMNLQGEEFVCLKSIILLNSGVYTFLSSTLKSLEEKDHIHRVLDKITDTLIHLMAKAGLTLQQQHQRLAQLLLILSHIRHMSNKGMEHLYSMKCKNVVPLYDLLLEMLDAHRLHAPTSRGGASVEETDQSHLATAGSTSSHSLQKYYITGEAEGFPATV
UniProt P26038, whole entry, looked up: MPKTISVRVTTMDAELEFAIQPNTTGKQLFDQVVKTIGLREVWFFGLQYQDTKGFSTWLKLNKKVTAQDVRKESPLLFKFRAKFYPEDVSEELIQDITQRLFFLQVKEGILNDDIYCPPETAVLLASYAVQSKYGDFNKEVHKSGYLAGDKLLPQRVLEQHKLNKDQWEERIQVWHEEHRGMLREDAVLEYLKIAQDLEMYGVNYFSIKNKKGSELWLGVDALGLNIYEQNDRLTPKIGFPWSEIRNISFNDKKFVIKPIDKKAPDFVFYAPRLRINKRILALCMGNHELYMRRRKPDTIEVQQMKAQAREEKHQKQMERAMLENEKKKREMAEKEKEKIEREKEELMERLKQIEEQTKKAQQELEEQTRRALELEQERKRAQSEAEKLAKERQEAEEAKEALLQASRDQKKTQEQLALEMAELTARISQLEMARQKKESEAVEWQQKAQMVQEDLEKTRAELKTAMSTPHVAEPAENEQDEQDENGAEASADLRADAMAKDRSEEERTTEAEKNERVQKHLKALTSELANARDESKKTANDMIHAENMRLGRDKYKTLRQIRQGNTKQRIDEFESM
UniProt P14902, whole entry: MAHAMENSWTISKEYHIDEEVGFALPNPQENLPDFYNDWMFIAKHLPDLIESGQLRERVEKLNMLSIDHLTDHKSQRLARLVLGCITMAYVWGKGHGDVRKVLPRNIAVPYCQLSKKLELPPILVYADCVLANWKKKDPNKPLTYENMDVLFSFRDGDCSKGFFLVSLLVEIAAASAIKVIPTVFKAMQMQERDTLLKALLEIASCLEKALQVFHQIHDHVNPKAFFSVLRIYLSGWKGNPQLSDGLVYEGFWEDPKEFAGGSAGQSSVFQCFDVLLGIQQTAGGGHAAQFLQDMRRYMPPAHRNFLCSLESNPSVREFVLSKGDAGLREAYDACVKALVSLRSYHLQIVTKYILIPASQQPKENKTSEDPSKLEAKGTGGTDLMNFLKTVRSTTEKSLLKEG
UniProt P07949, whole entry, looked up, stated change not applied: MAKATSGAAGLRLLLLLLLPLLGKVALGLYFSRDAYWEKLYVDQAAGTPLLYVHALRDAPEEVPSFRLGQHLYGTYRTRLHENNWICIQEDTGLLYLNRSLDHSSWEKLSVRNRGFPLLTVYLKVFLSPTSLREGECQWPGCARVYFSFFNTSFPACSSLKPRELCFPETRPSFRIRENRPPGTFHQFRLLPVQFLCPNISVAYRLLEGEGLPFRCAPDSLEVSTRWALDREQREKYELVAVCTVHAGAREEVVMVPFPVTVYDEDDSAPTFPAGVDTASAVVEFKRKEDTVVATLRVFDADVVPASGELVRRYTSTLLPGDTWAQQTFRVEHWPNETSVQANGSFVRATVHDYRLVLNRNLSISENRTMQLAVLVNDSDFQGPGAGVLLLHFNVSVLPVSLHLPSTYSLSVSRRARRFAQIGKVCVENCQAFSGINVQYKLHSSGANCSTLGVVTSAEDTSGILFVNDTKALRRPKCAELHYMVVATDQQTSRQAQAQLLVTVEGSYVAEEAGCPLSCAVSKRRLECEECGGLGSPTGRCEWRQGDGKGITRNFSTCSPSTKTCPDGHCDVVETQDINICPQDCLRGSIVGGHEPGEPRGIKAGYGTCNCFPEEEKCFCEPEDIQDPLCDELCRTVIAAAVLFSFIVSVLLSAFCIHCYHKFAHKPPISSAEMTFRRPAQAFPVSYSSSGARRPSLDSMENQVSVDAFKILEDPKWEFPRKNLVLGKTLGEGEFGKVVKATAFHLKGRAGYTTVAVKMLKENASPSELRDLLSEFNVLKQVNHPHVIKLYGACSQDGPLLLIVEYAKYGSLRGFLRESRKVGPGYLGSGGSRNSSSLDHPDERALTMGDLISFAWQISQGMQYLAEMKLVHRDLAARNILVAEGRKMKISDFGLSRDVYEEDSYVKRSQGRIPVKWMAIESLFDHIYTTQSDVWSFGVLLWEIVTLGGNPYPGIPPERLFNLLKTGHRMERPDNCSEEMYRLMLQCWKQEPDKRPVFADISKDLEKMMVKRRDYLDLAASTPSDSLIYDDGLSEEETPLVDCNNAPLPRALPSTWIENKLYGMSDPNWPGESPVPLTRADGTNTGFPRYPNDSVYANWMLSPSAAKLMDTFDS
UniProt P05067, 672-713 limits assumed: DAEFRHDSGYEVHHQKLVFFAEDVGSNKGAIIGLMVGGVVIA
UniProt P05067, whole entry, looked up: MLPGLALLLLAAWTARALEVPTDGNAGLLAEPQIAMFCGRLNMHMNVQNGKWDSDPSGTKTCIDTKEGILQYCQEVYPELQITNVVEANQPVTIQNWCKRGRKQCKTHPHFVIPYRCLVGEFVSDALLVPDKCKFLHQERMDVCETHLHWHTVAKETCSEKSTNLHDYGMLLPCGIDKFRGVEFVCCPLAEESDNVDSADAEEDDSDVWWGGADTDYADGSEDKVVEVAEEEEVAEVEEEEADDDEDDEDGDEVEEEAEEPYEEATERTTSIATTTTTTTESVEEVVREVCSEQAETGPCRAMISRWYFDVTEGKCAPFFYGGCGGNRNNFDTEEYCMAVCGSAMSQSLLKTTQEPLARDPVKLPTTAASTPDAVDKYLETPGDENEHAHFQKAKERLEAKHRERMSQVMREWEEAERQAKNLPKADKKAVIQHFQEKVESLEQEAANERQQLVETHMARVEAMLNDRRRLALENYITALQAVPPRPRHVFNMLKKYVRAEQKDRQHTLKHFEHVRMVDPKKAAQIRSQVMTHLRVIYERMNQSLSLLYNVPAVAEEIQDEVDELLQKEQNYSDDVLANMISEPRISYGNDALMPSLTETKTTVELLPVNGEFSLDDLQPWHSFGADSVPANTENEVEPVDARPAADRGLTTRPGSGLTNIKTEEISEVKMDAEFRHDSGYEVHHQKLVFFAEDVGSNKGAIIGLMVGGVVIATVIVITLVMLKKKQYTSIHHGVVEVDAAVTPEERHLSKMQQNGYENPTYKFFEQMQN
UniProt P68400, whole entry: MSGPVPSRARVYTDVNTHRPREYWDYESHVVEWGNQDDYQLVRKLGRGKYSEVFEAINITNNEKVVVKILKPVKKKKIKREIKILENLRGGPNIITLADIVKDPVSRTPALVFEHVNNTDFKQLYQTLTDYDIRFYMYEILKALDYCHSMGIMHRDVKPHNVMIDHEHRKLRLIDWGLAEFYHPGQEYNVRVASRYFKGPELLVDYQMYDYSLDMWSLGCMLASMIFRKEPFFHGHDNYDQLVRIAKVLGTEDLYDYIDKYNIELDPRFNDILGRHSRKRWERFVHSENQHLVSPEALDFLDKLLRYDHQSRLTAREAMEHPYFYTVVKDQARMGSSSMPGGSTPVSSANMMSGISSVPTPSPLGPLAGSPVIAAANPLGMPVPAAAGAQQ
UniProt O08808, 748-1175 limits assumed: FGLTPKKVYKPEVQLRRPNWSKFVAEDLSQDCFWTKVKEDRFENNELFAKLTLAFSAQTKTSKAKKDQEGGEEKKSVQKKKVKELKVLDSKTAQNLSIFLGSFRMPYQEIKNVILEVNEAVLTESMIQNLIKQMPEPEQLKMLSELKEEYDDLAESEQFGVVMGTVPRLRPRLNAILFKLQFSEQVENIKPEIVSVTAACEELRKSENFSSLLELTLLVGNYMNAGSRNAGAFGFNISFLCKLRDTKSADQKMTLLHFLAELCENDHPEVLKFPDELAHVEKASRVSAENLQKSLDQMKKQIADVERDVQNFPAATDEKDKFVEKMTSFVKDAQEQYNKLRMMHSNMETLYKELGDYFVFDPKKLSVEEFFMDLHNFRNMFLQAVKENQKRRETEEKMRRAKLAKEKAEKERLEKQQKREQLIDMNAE
UniProt B2RXH2, whole entry: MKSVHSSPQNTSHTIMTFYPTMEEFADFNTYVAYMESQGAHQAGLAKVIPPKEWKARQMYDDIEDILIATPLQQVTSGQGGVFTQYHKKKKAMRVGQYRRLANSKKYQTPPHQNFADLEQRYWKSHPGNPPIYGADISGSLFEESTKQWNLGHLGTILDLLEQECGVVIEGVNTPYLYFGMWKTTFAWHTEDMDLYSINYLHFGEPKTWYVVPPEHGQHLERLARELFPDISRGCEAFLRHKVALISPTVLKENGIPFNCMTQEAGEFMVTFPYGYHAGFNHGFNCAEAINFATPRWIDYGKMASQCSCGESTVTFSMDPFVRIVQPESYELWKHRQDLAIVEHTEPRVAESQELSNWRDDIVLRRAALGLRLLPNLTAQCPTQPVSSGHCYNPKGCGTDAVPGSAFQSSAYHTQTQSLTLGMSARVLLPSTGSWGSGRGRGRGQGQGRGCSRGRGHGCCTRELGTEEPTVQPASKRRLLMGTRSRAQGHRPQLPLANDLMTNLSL
UniProt Q9UBN7, whole entry: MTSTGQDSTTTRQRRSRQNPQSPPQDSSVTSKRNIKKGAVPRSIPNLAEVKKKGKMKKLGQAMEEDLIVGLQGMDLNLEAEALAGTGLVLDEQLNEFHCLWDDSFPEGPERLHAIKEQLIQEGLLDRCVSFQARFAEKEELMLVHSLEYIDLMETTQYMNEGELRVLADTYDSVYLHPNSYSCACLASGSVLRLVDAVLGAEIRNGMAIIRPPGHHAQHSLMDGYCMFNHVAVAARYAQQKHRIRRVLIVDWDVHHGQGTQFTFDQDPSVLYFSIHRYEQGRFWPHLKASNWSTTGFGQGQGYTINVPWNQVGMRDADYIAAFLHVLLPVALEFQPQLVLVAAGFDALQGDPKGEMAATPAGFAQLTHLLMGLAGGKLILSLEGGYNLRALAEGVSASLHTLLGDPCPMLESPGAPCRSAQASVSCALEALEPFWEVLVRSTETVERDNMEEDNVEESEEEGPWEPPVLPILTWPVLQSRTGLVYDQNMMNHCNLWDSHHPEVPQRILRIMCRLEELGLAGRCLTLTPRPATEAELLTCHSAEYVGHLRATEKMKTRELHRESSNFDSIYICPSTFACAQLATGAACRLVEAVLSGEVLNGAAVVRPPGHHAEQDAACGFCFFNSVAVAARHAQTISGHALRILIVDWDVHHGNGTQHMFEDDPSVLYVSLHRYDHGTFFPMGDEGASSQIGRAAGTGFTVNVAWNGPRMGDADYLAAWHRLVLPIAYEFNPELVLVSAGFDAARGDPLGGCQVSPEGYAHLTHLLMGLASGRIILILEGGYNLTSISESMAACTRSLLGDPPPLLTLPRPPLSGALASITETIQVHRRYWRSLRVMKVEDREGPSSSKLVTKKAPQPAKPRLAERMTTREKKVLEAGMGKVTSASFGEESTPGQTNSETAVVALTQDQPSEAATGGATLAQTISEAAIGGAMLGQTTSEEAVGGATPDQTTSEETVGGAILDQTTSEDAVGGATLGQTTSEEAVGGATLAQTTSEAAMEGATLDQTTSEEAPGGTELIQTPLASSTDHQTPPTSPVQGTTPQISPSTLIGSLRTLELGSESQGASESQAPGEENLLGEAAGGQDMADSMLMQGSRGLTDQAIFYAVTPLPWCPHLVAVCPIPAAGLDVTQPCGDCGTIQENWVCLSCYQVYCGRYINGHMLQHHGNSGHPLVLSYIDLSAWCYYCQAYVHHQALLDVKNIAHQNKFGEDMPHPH
UniProt P04062, whole entry R534H, looked up: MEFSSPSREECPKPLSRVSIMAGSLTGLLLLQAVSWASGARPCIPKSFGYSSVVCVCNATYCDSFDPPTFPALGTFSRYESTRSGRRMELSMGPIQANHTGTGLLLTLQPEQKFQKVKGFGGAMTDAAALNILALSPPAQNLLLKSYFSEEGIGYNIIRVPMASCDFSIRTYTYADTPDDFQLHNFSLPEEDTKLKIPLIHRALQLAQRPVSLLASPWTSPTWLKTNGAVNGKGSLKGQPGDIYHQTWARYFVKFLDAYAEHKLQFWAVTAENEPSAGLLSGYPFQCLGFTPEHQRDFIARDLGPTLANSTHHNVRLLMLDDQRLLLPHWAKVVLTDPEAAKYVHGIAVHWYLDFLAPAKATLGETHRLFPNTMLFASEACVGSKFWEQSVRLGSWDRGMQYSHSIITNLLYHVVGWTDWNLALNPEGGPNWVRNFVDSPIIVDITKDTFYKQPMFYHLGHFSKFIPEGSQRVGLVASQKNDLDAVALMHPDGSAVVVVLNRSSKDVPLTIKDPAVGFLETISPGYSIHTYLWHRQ

SMILES | target | test | system | setting | IC50
O=C(Nc1ccc(Cl)cc1)C(NS(=O)(=O)c1ccccc1)c1ccccc1 (centres unmarked) | Uracil nucleotide/cysteinyl leukotriene receptor, long isoform (GPR17, Homo sapiens, UniProt Q13304) | calcium mobilization, antagonist | 1321-N1 | – | 15.2 ± 1.27 µM
O=C(CCCn1c(=S)[nH]c2ccccc2c1=O)N1CCN(c2cccc([N+](=O)[O-])c2)CC1 | ESR1 | reporter gene, coactivator binding inhibitor, luciferase reporter | HEC-1 cells transfected with ERα | toxicity up to 50% at 20 µM, together with: estradiol 1 nM | 8.2 µM
O=C(Nc1ccc(-c2nc3ccc(NC(=O)C4CCCCC4)cc3s2)cc1)C1CCCCC1 | Moesin with CD44 | MSN-CD44 interaction, inhibitor, TR-FRET | – | together with: CD44 | > 20 µM
O=C(CN1C(=O)C=CC1=O)N1CCN(c2cc(N3CCCC3)nc(N3CCCC3)n2)CC1 | Caspase-1 (CASP1, Homo sapiens, UniProt P29466) | enzyme activity, inhibitor | – | 30 min preincubation, together with: Ac-WEHD-AMC 10 µM | 0.144 µM and 0.134 µM
CCOc1ccc(-c2cc(C(F)(F)F)c(C#N)c(SCC(=O)Nc3ccccc3F)n2)cc1 | TAAR1 (Homo sapiens, UniProt Q96RJ0) | – | – | – | > 10 µM
COc1ccc2nc3ccc(C)cc3c(SCCCN)c2c1 | HASPIN (Homo sapiens, UniProt Q8TF76) | inhibitor, TR-FRET | – | together with: histone H3 peptide | 0.07 µM
N#Cc1ccc2[nH]cc(/C=C/c3cccc(O)c3)c2c1 | IDO1 | enzyme activity, inhibitor | – | – | 21.4 µM
O=C(c1ccc(O)c(C(F)(F)F)c1)N1Cc2ccccc2C1 | HSP90AA1 (Homo sapiens, UniProt P07900) | binding, fluorescence polarization | – | together with: FITC-geldanamycin tracer | 7.9 ± 1.18 µM
CN1CCN(Cc2ccc(NC(=O)c3cncc(C#Cc4c(N)ncc5ccc(F)cc45)c3)cc2C(F)(F)F)CC1 | Kinesin-1 heavy chain/ Tyrosine-protein kinase receptor RET (RET/KIF5B, Homo sapiens, UniProt P07949+P33176, G810S) | cell viability, inhibitor, CellTiter-Glo | Ba/F3 KIF5B-RET G810S | – | 0.0151 ± 0.0005 µM
O=C(/C=C/c1ccc(O)c(OC(F)(F)F)c1)C(CCOCCOC1CCCCO1)C(=O)/C=C/c1ccc(O)c(OC(F)(F)F)c1 (centres unmarked) | Amyloid-beta precursor protein, Aβ aggregates (APP, Homo sapiens, UniProt P05067) | binding, thioflavin T competition | – | – | 0.65 µM
Nc1nccc(-c2ccc(C3(c4ccc(Cl)cc4)CCNCC3)cc2)n1 | LATS2 | kinase activity, inhibitor, radiometric HotSpot | – | together with: ATP 10 µM | 0.023 µM
O=C(OC(C(F)(F)F)C(F)(F)F)N1CC(OC(c2ccccc2)c2ccccc2)C1 | MGLL (Homo sapiens, UniProt Q99685) | inhibitor, fluorescence | – | together with: AHMMCE substrate | 0.0121 ± 0.0022 µM
COc1cccc(C(=O)Nc2ccc(-c3nc4ccccc4s3)cc2)c1 | Moesin with CD44 | MSN-CD44 interaction, inhibitor, TR-FRET | – | together with: CD44 | > 100 µM
S=c1[nH]c(-c2ccccc2)cs1 | CA2 (Homo sapiens, UniProt P00918) | inhibitor | – | – | 4.56 ± 0.62 µM
COc1ccc2[nH]cc(CCc3ccncc3)c2c1 | IDO1 | enzyme activity, inhibitor | – | – | > 50 µM
CC(=O)N(CC#Cc1cccc(C(N)=O)c1)C[C@H]1C[C@@H](n2ccc3c(Cl)ncnc32)[C@H](O)[C@@H]1O | N-terminal Xaa-Pro-Lys N-methyltransferase 1 (Homo sapiens, UniProt Q9BV86) | enzyme activity, inhibitor, SAHH-coupled fluorescence | – | – | > 100 µM
Cc1ccc(SCC(=O)Nc2ccc3nc(SCC(=O)NCC(C)C)sc3c2)cc1 | ESR1 | reporter gene, antagonist | HEC-1 transfected ERα luciferase reporter | – | > 50 µM
CC(=O)Nc1cc(Nc2cc(NC3CC3)n3ncc(C#N)c3n2)ccc1N(C)CCN(C)C | CSNK2A1 (Homo sapiens, UniProt P68400) | target engagement, NanoBRET | HEK293 | – | 0.0027 µM
Nc1ccccc1-c1nc2ccccc2[nH]c1=O | Protein diaphanous homolog 1, FH2 domain (Diaph1, Mus musculus, UniProt O08808) | actin assembly, inhibitor, pyrene-actin polymerization | – | – | > 50 µM

SMILES | target | test | system | setting | IC50
CCN1c2ccccc2C(=O)N(C)c2cnc(Nc3ccc(C(=O)N4CCC(N5CCN(C)CC5)CC4)cc3OC)nc21 | MAPK7 (Homo sapiens, UniProt Q13164) | kinase activity | – | – | 0.173 ± 0.037 µM
CCOc1ccc(S(=O)(=O)NC(=O)Cc2ccc(Cl)cc2)cc1Br | CGAS (Homo sapiens, UniProt Q8N884) | enzyme activity, inhibitor, Kinase-Glo ATP depletion | – | 25 °C, 100 nM enzyme | 3.29 µM
COc1ccc(-c2nc(S(C)(=O)=O)nn2-c2ccc(OC)cc2)cc1 | PTGS1 (Homo sapiens, UniProt P23219) | thromboxane B2 production, inhibitor, enzyme immunoassay | human whole blood | – | 0.006 ± 0.0002 µM
COc1ccc(Nc2c(C(=O)O)ccnc2C(=O)O)cc1 | KDM4E (Homo sapiens, UniProt B2RXH2) | inhibitor, FDH-coupled spectrophotometry, refers to: formaldehyde | – | – | 164 µM
Cc1ccccc1-c1ccc2c(c1)sc1nc(CCC(=O)O)[nH]c(=O)c12 | FGFR1 (Homo sapiens, UniProt P11362) | kinase activity, inhibitor, AlphaScreen | – | together with: biotinylated peptide substrate | 43 µM
CN1CCC[C@@H]1C(=O)N[C@@H](Cc1ccc(-c2ccccn2)cc1)B(O)O | Proteasome subunit beta type-2, β2 subunit (Plasmodium falciparum, UniProt Q8I261+Q8I6T3) | enzyme activity, inhibitor | – | together with: Ac-WLR-AMC | > 10 µM
COc1ccc2[nH]c3c(C)c4cc[n+](C)cc4c(C)c3c2c1 | Toll-like receptor 3 (Homo sapiens, UniProt O15455) | reporter gene, SEAP reporter | HEK-Blue hTLR3 | together with: poly(I:C) | 14.3 ± 3.29 µM
Cc1ccc(C(=O)n2cc(C#N)c3ccccc32)cc1 | Neutrophil elastase (ELANE, Homo sapiens, UniProt P08246) | enzyme activity, inhibitor, fluorogenic substrate | – | – | 10.1 ± 1.3 µM
CN1CC[C@H](c2c(O)cc(O)c3c(=O)cc(-c4ccccc4F)oc23)[C@H](O)C1 | Cyclin-dependent kinase 9, with cyclin T1 (CDK9, Homo sapiens, UniProt P50750) | – | – | ATP at Km | 0.002 µM
Cc1nc2ccccn2c1-c1ccnc(SCC(=O)Nc2ccc(C(C)C)cc2)n1 | ALK (Homo sapiens, UniProt Q9UM73) | ELISA | – | – | 20 µM
O=C(NO)c1c(F)c(F)cc(F)c1F | HDAC6 (Homo sapiens, UniProt Q9UBN7) | enzyme activity, inhibitor, electrophoretic mobility shift | – | together with: FAM-RHKK(Ac)-NH2 1 µM | 6.77 µM
COC(=O)/C(=C/c1c[nH]c2ccc(F)cc12)c1ccc(F)cc1 | IDO1 | enzyme activity, inhibitor | – | – | > 50 µM
Cc1ncsc1-c1ccc(CNC(=O)[C@@H]2C[C@@H](O)CN2C(=O)c2cccc(C#N)c2)cc1 | von Hippel-Lindau disease tumor suppressor, with elongin B, C (VHL, Homo sapiens, UniProt P40337) | binding, fluorescence polarization | – | 10% DMSO, together with: FAM-HIF1α peptide tracer | 12 ± 0.5 µM
COc1cc([C@@H]2c3cc4c(cc3[C@@H](OC(C)C)[C@H]3COC(=O)[C@H]23)OCO4)cc(OC)c1OC | Tubulin alpha/beta heterodimer (Leishmania infantum, UniProt A0A381MCS3+A4HTR0) | tubulin polymerization, inhibitor | – | 37 °C, together with: tubulin 1.2 mg/mL | 8.8 ± 4.5 µM
COc1cc2c(cc1OC)C(=O)/C(=C/c1ccccc1OC(=O)N(c1ccccc1)c1ccccc1)C2 | Cocaine esterase (CES2, Homo sapiens, UniProt O00748) | inhibitor | – | 33 min preincubation, together with: fluorescein diacetate | 0.306 ± 0.0267 µM
O=[N+]([O-])c1cc(CN2CCN(c3ccc(Cl)cc3)CC2)ccc1Cl | SEC14 (Saccharomyces cerevisiae, UniProt P24280) | phosphatidylinositol transfer, inhibitor | – | Sec14 287 nM, together with: [3H]-phosphatidylinositol | 31 ± 10.3 µM
COc1cc(Nc2ccnc3ccc(Br)cc23)cc(OC)c1OC | PKN3 (Homo sapiens, UniProt Q6P5Z2) | target engagement, NanoBRET | HEK293 | – | 3.5 µM
Fc1cnccc1-c1ccc(C2(c3ccc(Cl)cc3)CCNCC2)cc1 | LATS2 | kinase activity, inhibitor, radiometric HotSpot | – | together with: ATP 10 µM | 0.007 µM
O=C(O)CC[C@H](NC(=O)c1cc(C(=O)O)cc([C@H]2CCN[C@@H]2C(=O)O)c1)C(=O)O | Glutamate receptor ionotropic, NMDA 2D, with GluN1 (Rattus norvegicus, UniProt Q62645) | ion current, antagonist, two-electrode voltage clamp | Xenopus oocytes | GluN1/GluN2D, together with: glycine 100 µM and glutamate 1 µM | 23.5 ± 1 µM

SMILES | target | test | system | setting | IC50
COc1cc(Nc2ncnc(-c3cccnc3Nc3cc(NC(=O)c4cccc(C(F)(F)F)c4)ccc3C)n2)cc(OC)c1OC | ABL1 (Homo sapiens, UniProt P00519) | enzyme activity | – | – | 0.01 ± 0.003 µM
O=[N+]([O-])c1ccc(/C=C/c2c[nH]c3ccc(F)cc23)c(F)c1 | IDO1 | enzyme activity, inhibitor | – | – | > 100 µM
NS(=O)(=O)c1ccc(Cc2c(-c3ccc(F)c(/C=C/C4CCCC4)c3)nn(-c3nc(C(=O)O)cs3)c2CC2CC2)cc1F | LDHA (Homo sapiens, UniProt P00338) | enzyme activity, inhibitor | – | – | 0.05 µM
OC[C@H]1[C@@H](O)[C@H](O)[C@@H](O)CN1CCCCCOCc1ccc(Br)cc1 | GBA1 (Homo sapiens, UniProt P04062, R534H) | inhibitor, 4-methylumbelliferyl glucoside | – | – | 100 µM
CN(CCCOc1ccc(CC2SC(=O)NC2=O)cc1)c1ccccn1 (centres unmarked) | ACSL4 (Homo sapiens, UniProt O60488) | enzyme activity, inhibitor, EnzChek pyrophosphate | – | – | 2.4 ± 0.5 µM
COc1cc2ncnc(Oc3ccc(NC(=O)c4c5n(n(-c6ccc(F)cc6Cl)c4=O)CCCC5)cc3F)c2cc1OC | AXL (Homo sapiens, UniProt P30530) | inhibitor, ELISA | – | – | 0.0135 ± 0.0018 µM
COc1cc(Cl)ccc1-c1nc(Nc2nc3ccccc3o2)ncc1C#N | Grm5 (Rattus norvegicus, UniProt P31424) | calcium mobilization, negative allosteric modulator | – | together with: glutamate EC80 | 0.148 ± 0.042 µM
CCOc1ccccc1Nc1nnc(SCC(=O)Nc2cc(F)ccc2F)s1 | CD28, with CD80 (Homo sapiens, UniProt P10747) | CD28–CD80 binding, inhibitor, competitive ELISA | – | together with: biotinylated CD80 | 18.9 µM
COc1ccc2[nH]cc(CCc3ccccc3)c2c1 | Amyloid-beta precursor protein, amyloid-beta peptide (APP, Homo sapiens, UniProt P05067) | Aβ42 oligomerisation, ELISA | – | – | > 20 µM
O=C(O)c1cc(C(=O)N2CCC[C@H]2C(=O)O)cc([C@H]2CCN[C@@H]2C(=O)O)c1 | kainate receptor (rat) | binding, radioligand binding | rat cortical synaptosomes | together with: [3H]kainate | 10 to 50 µM
O=C(Nc1ccc(-c2nc3ccccc3[nH]2)cc1)C1CCC1 | Tyrosine-protein kinase SYK, with FCER1G (SYK, Homo sapiens, UniProt P43405) | protein binding, inhibitor, TR-FRET | – | – | > 100 µM
CC(C)NC(=O)CSc1nc2ccc(NC(=O)CSc3cccc(Cl)c3)cc2s1 | ESR1 | reporter gene, antagonist | HEC-1 cells transfected with ERα | together with: estradiol 100 nM | 3.6 µM
CN1CCN(Cc2ccc3c(c2)c(=O)c(C(N)=O)cn3-c2ccc(F)cc2)CC1 | Grm2 (Rattus norvegicus, UniProt P31421) | calcium mobilization, negative allosteric modulator | – | – | 1.11 µM
CC(C)=CCC/C(C)=C/CC/C(C)=C/CC/C(C)=C/CC1=C(C)C(=O)c2ccccc2C1=O | TGM2 (Homo sapiens, UniProt P21980) | enzyme activity, inhibitor, biotin-pentylamine incorporation | – | without DTT | 3 ± 2.8 µM
Nc1nc2c(ncn2COCCNC(=O)CCCCNC(=O)c2cc3cc(Br)ccc3c(Br)c2O)c(=O)[nH]1 | SAMHD1 (Homo sapiens, UniProt Q9Y3Z3) | ssRNA binding, fluorescence anisotropy | – | 1 µM protein, together with: FAM-labelled 32-mer ssRNA probe | ~25 µM
NS(=O)(=O)c1ccccc1Nc1nc(-c2ccc(Cl)cc2)c2ccccc2n1 | Bromodomain-containing protein 4, BD1 (BRD4, Homo sapiens, UniProt O60885) | binding, HTRF | – | – | 0.612 ± 0.214 µM
COc1ccc(NC(=O)N[C@@H](Cc2ccc(C#N)cc2)C(=O)NCC2(c3ccc(O)cc3)CC2)cc1 | FPR2 (Homo sapiens, UniProt P25090) | calcium mobilization | FPR2-transfected HL-60 | desensitization pretreatment, together with: WKYMVM 5 nM | 3.7 ± 1.3 µM
O=C(CCCCCCCn1c(=S)[nH]c2ccccc2c1=O)N1CCN(c2cccc(Cl)c2)CC1 | ESR1 | reporter gene, antagonist | HEC-1 cells transfected with ERα | together with: estradiol 1 nM | 4.2 µM

For quick reference, copied from above:
SMILES | target | test | system | setting | IC50
COc1cc(Nc2ncnc(-c3cccnc3Nc3cc(NC(=O)c4cccc(C(F)(F)F)c4)ccc3C)n2)cc(OC)c1OC | ABL1 (Homo sapiens, UniProt P00519) | enzyme activity | – | – | 0.01 ± 0.003 µM
COc1ccc2[nH]cc(CCc3ccccc3)c2c1 | Amyloid-beta precursor protein, amyloid-beta peptide (APP, Homo sapiens, UniProt P05067) | Aβ42 oligomerisation, ELISA | – | – | > 20 µM
COc1ccc2[nH]cc(CCc3ccncc3)c2c1 | IDO1 | enzyme activity, inhibitor | – | – | > 50 µM
